Measurements from different studies.
Lines come from different studies, so protocols differ. Numbers after ± are the reported error.
DRD2: D(2) dopamine receptor (DRD2, Homo sapiens, UniProt P14416)
Sequence of UniProt P14416 (whole entry, unmodified, looked up): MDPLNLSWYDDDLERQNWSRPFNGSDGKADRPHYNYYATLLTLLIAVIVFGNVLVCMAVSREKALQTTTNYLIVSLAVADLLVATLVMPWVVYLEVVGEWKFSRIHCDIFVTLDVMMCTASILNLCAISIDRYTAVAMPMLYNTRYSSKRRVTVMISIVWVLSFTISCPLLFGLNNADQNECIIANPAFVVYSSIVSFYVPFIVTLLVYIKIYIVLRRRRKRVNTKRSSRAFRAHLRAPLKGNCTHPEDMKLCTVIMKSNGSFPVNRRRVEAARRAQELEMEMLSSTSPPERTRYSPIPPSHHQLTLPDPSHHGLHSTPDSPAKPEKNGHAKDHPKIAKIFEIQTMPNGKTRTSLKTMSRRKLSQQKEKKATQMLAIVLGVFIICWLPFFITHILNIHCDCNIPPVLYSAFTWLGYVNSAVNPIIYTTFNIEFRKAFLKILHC
DRD2 F110L/V111M: D(2) dopamine receptor (DRD2, Homo sapiens, UniProt P14416, F110L/V111M)

Compound | tested on | test | system | setting | endpoint | value
COc1ncccc1-c1cnn2ccc(N3CCN(C(=O)OC(C)C)CC3)nc12 | DRD2 | liability screen | – | – | IC50 | > 30 µM
C[C@H](N)Cn1ncc2ccc3c(c21)CCCO3 | DRD2 | radioligand binding | – | with: [3H]spiperone | IC50 | > 100 µM
COC(=O)[C@H]1[C@H]2C[C@@H]3c4[nH]c5cc(OC)ccc5c4CCN3C[C@H]2C[C@@H](OC(=O)c2cc(OC)c(OC)c(OC)c2)[C@@H]1OC | Plasmodium falciparum | – | 3D7 | – | IC50 | 2 µM
NCCc1cccc(O)c1 | DRD2 | – | – | – | EC50 | 0.1 µM
OC(c1ccc(F)cc1)C(F)(F)CCN1CCC(O)(c2ccc(Cl)cc2)CC1 (racemic) | DRD2 | – | – | – | Ki | 5.47 ± 0.403 µM
COc1cc(C(=O)N2CC[C@@H](O)[C@@H](N)C2)cc2nc(-c3cc4ccccc4n3CC3CC3)n(C)c12 | DRD2 | antagonist, GTPγS LEADseeker | – | – | IC50 | 25.1 µM
COC(=O)c1ccc(NS(=O)(=O)c2c(C)[nH]c(C)c2C(=O)N2CCC(F)(F)C2)cc1Cl | DRD2 | – | – | – | IC50 | > 100 µM
CC(C)Oc1cccnc1N(C)C1CCN(Cc2ccc(I)cc2)CC1 | DRD2 F110L/V111M | binding | COS-7 membranes | mutant receptor, with: [3H]methylspiperone 0.5 nM | Ki | 0.0038 ± 0.00073 µM
Cc1[nH]c(C)c(S(=O)(=O)F)c1C(=O)N1CCC(F)(F)C1 | DRD2 | – | – | – | IC50 | > 100 µM
Clc1ccc(N2CCN(Cc3c[nH]c4ncccc34)CC2)cc1 | DRD2 F110L/V111M | binding | – | – | Ki | 0.117 ± 0.095 µM
Cc1[nH]c(C)c(S(=O)(=O)Nc2ccc(S(=O)(=O)F)c(F)c2)c1C(=O)N1CCC(F)(F)C1 | DRD2 | – | – | – | IC50 | > 100 µM
CC1(C(=O)O)C2CCC(O2)C1(C)C(=O)O (stereo not drawn) | Plasmodium falciparum | – | 3D7 | – | IC50 | 2 µM

Excerpt of the above:
Compound | tested on | test | system | setting | endpoint | value
C[C@H](N)Cn1ncc2ccc3c(c21)CCCO3 | DRD2 | radioligand binding | – | with: [3H]spiperone | IC50 | > 100 µM
OC(c1ccc(F)cc1)C(F)(F)CCN1CCC(O)(c2ccc(Cl)cc2)CC1 (racemic) | DRD2 | – | – | – | Ki | 5.47 ± 0.403 µM
